Measurements of several laboratories.
Numbered parts are unrelated; each lists some results of a single study. “And” joins repeats or separate records; there may be more than shown. Substitutions count along the parent as printed.

Study 1 — target: CCNB1, cyclin fold, Cln2 fusion (human); technique: yeast growth competition, sequencing; matrix: yeast; notes: weak parent motif; baseline: not given; direction: higher = stronger binding
Starting sequence: SLBP docking peptide (human); ARYKRKLLINDFG
Substitution	normalised enrichment score
K4M	0.496
A1Q	-0.195
N10W	0.813
F12S	0.485
R5D	0.528
K4D	0.164
K6S	-0.313
K4I	0.282
L8T	0.77

Study 2 — technique: DHFR PCA, deep sequencing; matrix: yeast; with: (+)-ABA 0.032 µM; baseline: wild-type fitted maximum; direction: higher = stronger binding
Target: ABI1, truncated, D143A, DHFR fusion (Arabidopsis thaliana)
Notes: methotrexate growth selection, single substitutions
Starting sequence: PYL1, truncated, DHFR fusion (Arabidopsis thaliana); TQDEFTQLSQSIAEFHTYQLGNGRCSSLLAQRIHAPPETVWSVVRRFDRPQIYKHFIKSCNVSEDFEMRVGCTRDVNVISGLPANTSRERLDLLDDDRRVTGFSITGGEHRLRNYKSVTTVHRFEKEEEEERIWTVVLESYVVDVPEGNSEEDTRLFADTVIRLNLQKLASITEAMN
Substitution	relative binding score
E139D	-7.32%
G81T	33.4%
V142N	-5.36%
A13D	17.5%

Study 3 — technique: RNA Bind-n-Seq; form: RNA; matrix: in vitro; tested at: 365 nM; baseline: no-protein control; direction: higher = stronger binding
Target: RNA binding protein fox-1 homolog 2, RRM domain, GST-SBP tag (RBFOX2, Homo sapiens, UniProt O43251-10, residues 100-194)
Notes: natural RNA segment, single round, ends assumed
Target sequence (chain): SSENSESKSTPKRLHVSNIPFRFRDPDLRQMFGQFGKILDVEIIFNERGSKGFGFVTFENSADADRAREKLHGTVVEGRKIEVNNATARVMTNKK
Sequence	RBNS enrichment (R)
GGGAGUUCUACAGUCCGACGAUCCUUAAAACCUGGCUGGACCCCCAUGAGUCCACGCAGAGUCAAUAACUCACCUGUCAUGCUGUUCCCAGGAGGGACAGCUUGGUAGGAACUUUCUGGGGUUUGACUGUUACUGGAAUUCUCGGGUGCCAA	0.313
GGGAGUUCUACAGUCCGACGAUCGACUUGUCACAGUAGAGAUGCUGACAAACCACAUGUGGGAUUGCUAUGCUCCAAGGAUCACCUCAGUUCUCUCUCAGAUUCUGGAAACAGAUGAAAUGCUCUUUGCAUUGUGGAAUUCUCGGGUGCCAA	0.197
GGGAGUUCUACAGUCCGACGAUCAUUGGGUAAUAACUUCAAGAGGAAUGAGAAGUGACAAAAUUGAUUUAAAAUAUUGUUCUACUUAUAAAUAAAUGCUUGAUAUAAAAAAUUUUCUCCAUAAAGUUUGACAUUGGAAUUCUCGGGUGCCAA	1.27
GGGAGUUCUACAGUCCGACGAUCCAUGGGCAUACCAAGCCAGAGCCCCAGGGAUAAGCUGGGGGGUCUUGUGGCCUUUAGGACAGUGCUUAGCACUGUGCAGCUGGGACUGUCCCUGGCAAGUGCCUGGUAAAUGGAAUUCUCGGGUGCCAA	0.317
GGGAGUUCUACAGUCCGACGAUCGGCCUCAGUUGCCCUGGCAGAAAAAUGGAUUCAACUUGGCCUUUCUGAAGGCAAGACUGGGAUUGGAUCACUUCUUAAACUUCCAGUUAAGAAUCUAGGUCCGCCCUCAAUGGAAUUCUCGGGUGCCAA	0.36
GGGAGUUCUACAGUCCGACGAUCCUAUUAUGAAAUAAGUAAAGGUAGAAAAAUAAUGGUCUGUUGUUACUUAAGAAUACUCCUGGCAUAAGUUACUAGAAGUGGUGUGUAUAUAUUCGGGGGAGUAAGGAAAUUGGAAUUCUCGGGUGCCAA	0.838
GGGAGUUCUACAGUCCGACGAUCAAAAGAACCAAGGCCCGUAGGAACAAGGUGCUAUGAAUCUGAAACCAAGAGAAACCUCAGUUUGGCAUGGUUCUUCAGGGUAGCUUCCGAGUAGAAAUAGUCUGCUGCAAUGGAAUUCUCGGGUGCCAA	0.362
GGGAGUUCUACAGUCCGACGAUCCGCCUCUUUUAUUAUUUUGACUGAAUGUUUUAUGGAAUUGAAAGAAACAUACGUUCUUUUCAAGACUUCCUCAUGAAUCUCUCAAUUAUAGGAAAAGUUAUUGUGAUAAAUGGAAUUCUCGGGUGCCAA	0.422
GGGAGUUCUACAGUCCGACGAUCCCGCCACAACCCUGCGUGUGGACCCUGGCAGGGGGGGGUGCCAGGCCCCUGGAAAGCAGGGGUUACCGUUACGAGGCUGUGGUCCGGGGCAAGCCAAGUACGAAGCAGCAUGGAAUUCUCGGGUGCCAA	2.44
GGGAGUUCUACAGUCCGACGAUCCACUUUGUGCCAACAGAGGAUGGACGACACCUUUCCCUGUACCCACUGCAGAGGAAGAACCCUGGGCACAGCAGCUUUGUCCUUGGCUACAAACUGUUACAACGUCACACUGGAAUUCUCGGGUGCCAA	0.456

Other studies, line by line
Substance	target	assay	system	setting	scale	endpoint	value
PhoQ, residues 284 288 289 292 302 303 SNGLAW	PhoP, residues 12 14 15 18 19 LWHCS (Escherichia coli, UniProt P23836)	Sort-seq, item: YFP reporter	E. coli	PhoQ-PhoP variant library, with: 10 µM Mg2+	baseline: high Mg2+ state, higher = stronger signaling	fold induction	9.82 and 10.5
